Measurements of several laboratories.
Compare with care: the assays were run in different laboratories.
Cell line: SK-OV-3

Structure (SMILES)	test	setting	scale	quantity	result
Cc1nc2c(F)cc(-c3nc(Nc4ccc(CNC(=O)CCCCCCC(=O)NO)cc4)ncc3F)cc2n1C(C)C	cell growth or viability, CCK-8	0.3 µM, 48 h	–	inhibition	99.2%
CCCc1cc2cc(-n3nc(C(F)(F)F)c4c3CC(C)(C)CC4=O)cc(N3CCC(O)CC3)c2c(=O)[nH]1	cell growth or viability, MTS	–	–	IC50	3.47 µM
CCN(C(=O)c1cc(F)ccc1Oc1nncnc1N1CCC2(C1)CN([C@H](CCCN(C)CCOC)C(C)C)C2)C(C)C	cell growth or viability	72 h	–	GI50	> 10 µM
C1=[N+]2CCCC[N+]3=Cc4ccc5[n]4[Au-]23[n]2c1ccc2-c1nc2ccccc2nc1-5.F[P-](F)(F)(F)(F)F	NCI60 five-dose screen	–	–	TGI	4.06 -log M
CCCc1cc2cc(-n3nc(N)c4c3CC(C)(C)CC4=O)cc(N3CCC(O)CC3)c2c(=O)[nH]1	cell growth or viability, MTS	–	–	IC50	> 50 µM
Cc1nc2c(F)cc(-c3nc(Nc4ccc(CNC(=O)CCCC(=O)NO)cc4)ncc3F)cc2n1C(C)C	cell growth or viability, CCK-8	0.3 µM, 48 h	–	inhibition	76.5%
C=C(NC(=O)c1csc(-c2cccnc2)n1)C(=O)NC(=C)C(=O)OC	cell growth or viability	–	–	EC50	21 µM
CCCc1cc2cc(-n3nc(C4CC4)c4c3CC(C)(C)CC4=O)cc(N3CCC(O)CC3)c2c(=O)[nH]1	cell growth or viability, MTS	–	–	IC50	8.74 µM
O=C(Nc1nnc2c1c(-c1ccc(Cl)cc1)nc1sc(=Cc3ccco3)c(=O)n12)c1ccccc1 (mixture of isomers)	SRB	10 µM, NCI60 single-dose screen	reference: untreated	cell growth	53.6%
C=C(NC(=O)c1csc(-c2ccc(NC(=O)CCCCCBr)cc2)n1)C(=O)NC(=C)C(=O)OC	cell growth or viability	–	–	EC50	2.2 µM

Repeated from above:
Structure (SMILES)	test	setting	scale	quantity	result
C1=[N+]2CCCC[N+]3=Cc4ccc5[n]4[Au-]23[n]2c1ccc2-c1nc2ccccc2nc1-5.F[P-](F)(F)(F)(F)F	NCI60 five-dose screen	–	–	TGI	4.06 -log M
